# Measured values pooled from the literature.
# Every numbered part comes from another study and shows a few of its results, in no order. Changes are numbered by the printed parent chain.

# Sample 1
# Target: ABI1, truncated, D143A, DHFR fusion (Arabidopsis thaliana)
# Method: DHFR PCA, deep sequencing
# Sample: yeast
# Setting: methotrexate growth selection, single substitutions
# With: (+)-ABA 58 µM
# Reference: wild-type fitted maximum
# Reading: higher = stronger binding
# Starting sequence: PYL1, truncated, DHFR fusion (Arabidopsis thaliana); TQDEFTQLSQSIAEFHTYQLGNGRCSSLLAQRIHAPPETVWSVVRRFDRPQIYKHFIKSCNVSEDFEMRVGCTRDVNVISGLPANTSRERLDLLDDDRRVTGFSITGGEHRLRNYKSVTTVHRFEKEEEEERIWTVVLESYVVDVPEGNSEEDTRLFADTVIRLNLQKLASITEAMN; partner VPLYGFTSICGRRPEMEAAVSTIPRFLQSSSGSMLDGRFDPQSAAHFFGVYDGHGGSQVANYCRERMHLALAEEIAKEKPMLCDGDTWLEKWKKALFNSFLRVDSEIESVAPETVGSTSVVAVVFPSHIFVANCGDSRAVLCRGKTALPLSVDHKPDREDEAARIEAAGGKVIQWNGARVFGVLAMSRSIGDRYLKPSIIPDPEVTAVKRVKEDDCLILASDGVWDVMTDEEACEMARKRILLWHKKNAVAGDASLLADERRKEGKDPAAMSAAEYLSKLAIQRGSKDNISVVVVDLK
Substitution,relative binding score [%]
L94R,11.9
G148D,74.3
C60D,8.03
L164A,89
T154P,6.25
T17D,63.9
W41S,-4.66

# Sample 2
# Target: Probable WRKY transcription factor 50, DNA-binding domain (WRKY50, Arabidopsis thaliana, UniProt Q8VWQ5, residues 99-173)
# Method: DNA-protein interaction ELISA
# Molecule type: double-stranded DNA, one strand shown
# Sample: in vitro, bacterial lysate
# Concentration: not given
# Setting: whole dsDNA probe, crude lysate protein
# Reference: highest signal in screen
# Reading: higher = stronger binding
# Residues (chain): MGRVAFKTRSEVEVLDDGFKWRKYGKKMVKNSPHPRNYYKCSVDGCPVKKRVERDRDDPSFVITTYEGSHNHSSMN
Oligonucleotide,relative absorbance
AAAAAATATGTTTTCGCTTTATTCTTAAAA,11.2 % of maximum
AAAAAATATCATTGTTACCGTTGCTAAAAA,38.6 % of maximum
AAAAAAAGTAGTTACTGCGAAAGTCTAAAA,23.8 % of maximum
AAAAAACGGTAAGTCGACAAAA,23.3 % of maximum
AAAAAACCCTAACGAATGCTTTTCGGAAAA,13.1 % of maximum
AAAAAACCGACCTGCACGTCGCTGCTAAAA,18.8 % of maximum
AAAAAAATTCATGCTATTTAACCTTAAAAA,24 % of maximum
AAAAAAACCGATTACCATTTTTACTGAAAA,15.1 % of maximum
AAAAAATTGCCGTCATAATTGTGGTAAAAA,11.8 % of maximum
AAAAAATTACTATTACACACTTGGGGAAAA,15.5 % of maximum
AAAAAACATCGCTGTCGTTGACGTTGAAAA,49.9 % of maximum
AAAAAAGGTAGTCACATTACGAGGGTAAAA,20 % of maximum
AAAAAAAAGGACATTTTTTCTTTTTGAAAA,44.1 % of maximum
AAAAAATTCTAACTTAGCCTATGTCCAAAA,48.6 % of maximum

# Sample 3
# Target: RNA binding protein fox-1 homolog 2, RRM domain, GST-SBP tag (RBFOX2, Homo sapiens, UniProt O43251-10, residues 100-194)
# Method: RNA Bind-n-Seq
# Molecule type: RNA
# Sample: in vitro
# Concentration: 365 nM
# Setting: natural RNA segment, single round, ends assumed
# Reference: no-protein control
# Reading: higher = stronger binding
# Shared flanks, not repeated: GGGAGUUCUACAGUCCGACGAUC … UGGAAUUCUCGGGUGCCAA
# Construct (chain): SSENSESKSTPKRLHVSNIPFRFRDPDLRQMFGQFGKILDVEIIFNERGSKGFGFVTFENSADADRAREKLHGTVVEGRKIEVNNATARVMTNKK
Oligonucleotide,RBNS enrichment (R)
GAGCAUAGGACCUGGUCUCUGGCUCUCCUCCCCCCUGCUGUGUAAAUAGUCUCCCCAUCCCAUGAGGGGGCUUUGAUGGCCCUGGAGACCCUACAGUAAAUAAACCAGCA,0.575
AUCAACAGGACUACACACUUGUAUAUACAUUCUUGAGAACACUGCAAUGUGAAAAUCACGUUUGCUAUUUAUAAACUUGUCCUUAGAUUAAUGUGUCUGGACAGAUUGUG,0.374
UUCUGCCCCAGCUCUGAGACACUUGCAGAUCUUAAGGUCUGAGACUUGCUGAUUUUCUGGUUGGAGUGUUUUUUUGUAUUGCCAUAGUCCCUUCCCCCUGAAGCAAUAGC,1.24
CCGCUUGUCCCUCUUAGGCAUUUCAGGCUUCCUUUGGGAUUUCAGGUGUCCCAUGAUCUUGAUGUGCUGCUAGGCUGGAGCACACACUGGCCAUUACUGAACACAGCCAU,0.877
ACUCAGCAGUGACCCUGUGUGCCAGGCCAGAUCCAAACUGAGAGGGAAGGUGUCGUUUUUACACUGCUAAUGACGAGAGUGGCUCUUUUUAGCUAGGCGAGUACAGACGG,0.369
CUAACCAGGCUCUUCCUCGGGGCAGGGAGGUCCUGGCUUACUCUGUAUUGAGACAGACCCGACAAGUUCCAUGGCAUUAAAUCCAGUUCUGCGUUGGCUGGGGCAGAGCU,0.82
UCUUAGGGCUCACACUCGCCUUUUGGCGCGUGGUGGGUUUUUGGUAGUGCAGAAAGAAUCCAGGGAUGGGAGGGGAAGGGACGGAUGGGUGCUCAAUUGCUGCUCACGUC,0.528
UGCUGUCCUUCUUUGCAUUUCACAAUAUCAAAGAAACCACCACCCUUCUUCCUAACAGCAUUUUAUGCCUUUUAUUCCACAUUAAAUGGGAAUUGUGCCUACUUAGGAGU,0.425
GCAAGCAGAUUCGAAGAGCUGUUGCCCUCUUCUAAAAAAGGCUUUUGGAGGCUGUGUUACAUGCAUGCCCUAAAGCAGUCAGUCUGUUAGUAUGAGCAAGACAUCUGAAG,2.39
CCUGACCCUCAGUUCCCAGAGGACCUAGAGGCUCGAGGGUGGGGCCUGCCUUUCUUGAUGUCCAAUGAUGGGGCCUGGAAUGUAUGAGCUAGCAAGGCUUCUUCAGCUUA,0.747
UUGUUCUUCCACCCACCCUCUCUUUUUCUUUUUCUUUCAAGACAGGGAUUCUACGUGUAGCCCUGGCUGACCUAGAAUUAGCUCUGAAGACCAGGCUGACCUUGAACUUA,0.252

# Single results of other studies
Molecule,target,test,test system,conditions,how to read,endpoint,result
"PhoQ, residues 284 288 289 292 302 303 SLSLLA","PhoP, residues 12 14 15 18 19 LHATL (Escherichia coli, UniProt P23836)","Sort-seq, item: YFP reporter",E. coli,"PhoQ-PhoP variant library, with: 10 µM Mg2+","reference: high Mg2+ state, higher = stronger signaling",fold induction,0.936

# Excerpt of the above (sample 2):
Oligonucleotide,relative absorbance
AAAAAAATTCATGCTATTTAACCTTAAAAA,24 % of maximum
AAAAAATTGCCGTCATAATTGTGGTAAAAA,11.8 % of maximum
AAAAAACCCTAACGAATGCTTTTCGGAAAA,13.1 % of maximum
AAAAAATTACTATTACACACTTGGGGAAAA,15.5 % of maximum
AAAAAAAAGGACATTTTTTCTTTTTGAAAA,44.1 % of maximum
